Published values collected from several papers.
Numbered parts are unrelated; each lists some results of a single study. Positions count from the first letter of the parent shown.

Set 1
Target: CCNF, cyclin fold, Cln2 fusion (human)
Technique: yeast growth competition, sequencing
Sample: yeast
Notes: strong parent motif
Reference: not given
Reading: higher = stronger binding
Starting sequence: CDKN1B docking peptide (human); PSACRNLFGPVDH
Change	normalised enrichment score
H13S	6.96
P1R	7.63
P10A	5.88
P1A	7.18
C4P	1.99
C4I	5.22
S2W	6.19
N6H	2.38
R5Y	0.296
H13A	6.78
D12F	7.35
H13Q	7.06
R5P	-0.845
C4S	4.68
P10C	6.53
A3E	3.47
N6F	3.04

Set 2
Target: Ras GTPase-activating protein-binding protein 1, full length (G3BP1, Homo sapiens, UniProt Q13283)
Sequence of UniProt Q13283 (whole entry, looked up): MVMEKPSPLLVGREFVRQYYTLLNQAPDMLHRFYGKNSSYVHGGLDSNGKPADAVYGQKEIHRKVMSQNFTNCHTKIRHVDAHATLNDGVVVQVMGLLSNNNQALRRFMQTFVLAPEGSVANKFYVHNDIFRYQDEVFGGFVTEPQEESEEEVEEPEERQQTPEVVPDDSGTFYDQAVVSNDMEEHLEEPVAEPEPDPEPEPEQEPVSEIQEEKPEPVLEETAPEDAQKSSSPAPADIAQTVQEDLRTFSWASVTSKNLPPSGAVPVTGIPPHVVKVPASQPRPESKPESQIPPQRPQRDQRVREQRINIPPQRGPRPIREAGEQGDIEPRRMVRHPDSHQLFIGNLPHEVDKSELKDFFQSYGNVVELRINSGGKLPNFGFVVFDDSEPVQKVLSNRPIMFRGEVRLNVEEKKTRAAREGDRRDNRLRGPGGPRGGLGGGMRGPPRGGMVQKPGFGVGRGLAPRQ
Technique: RNA Bind-n-Seq
Form: RNA
Sample: in vitro
Concentration: 200 nM
Notes: whole 134-nt RNA, ends assumed
With: 150 mM LiCl
Reference: input library
Reading: higher = stronger binding
Each molecule: 7-deaza-guanosine replaces G
Constant ends, left off below: GGGAGUUCUACAGUCCGACGAUC … UGGAAUUCUCGGGUGUCAAGG
Oligonucleotide	log2 enrichment
CCUGUGCUACACAUCGUAUGUACCGAAUCGGGGAAAAAGGGGAAAAAAAGGGGUUUGGGGAAAGUAUUAUGUUACGCCGUUCGGAUCUGC	-0.315
CCUGUGCUACACAUCGUAUGUACCGAAUCGGGGUUUGGGGUUUUUUUGGGGAAAAAGGGGAAAGUAUUAUGUUACGCCGUUCGGAUCUGC	0.373
CCUCAAGUCCUGUGCUACACAUCGUAUGUACCGAAUCGGAAGGAAGGAAGGGAAAGUAUUAUGUUACGCCGUUCGGAUCUGCACUUCCAG	0.275
CCUCAAGUCCUGUGCUACACAUCGUAUGUACCGAAUCGGGGCGGGCGGGGCGGAAAGUAUUAUGUUACGCCGUUCGGAUCUGCACUUCCA	0.0358
UCCUGUGCUACACAUCGUAUGUACCGAAUCGGAAAAAAGGAAAAAAGGGAAAAAAGGGGAAAGUAUUAUGUUACGCCGUUCGGAUCUGCA	-0.722
CACAGACAACACGCACCCACACAGACACAGAGAAAAGGGGUUGGGAUGGGGACAGGGUGCACAGCAGGGCGGGGUAGGACCCCAGCCCCU	0.823
CCUGUGCUACACAUCGUAUGUACCGAAUCGGGGAAAAAGGGGUUUUUGGGGUUUUUGGGGAAAGUAUUAUGUUACGCCGUUCGGAUCUGC	-0.448

Set 3
Target: RING finger protein unkempt homolog, zinc fingers 1-6, GST-SBP tag (UNK, Homo sapiens, UniProt Q9C0B0, residues 30-357)
Technique: RNA Bind-n-Seq
Form: RNA
Sample: in vitro
Concentration: not given
Notes: RNA with constant flanks, human and mouse sites, ends assumed
Reference: input RNA pool
Reading: higher = stronger binding
Constant ends, left off below: GGGAGUUCUACAGUCCGACGAUC … CAACAGAGGAUUGAGCAUCA
Construct (chain): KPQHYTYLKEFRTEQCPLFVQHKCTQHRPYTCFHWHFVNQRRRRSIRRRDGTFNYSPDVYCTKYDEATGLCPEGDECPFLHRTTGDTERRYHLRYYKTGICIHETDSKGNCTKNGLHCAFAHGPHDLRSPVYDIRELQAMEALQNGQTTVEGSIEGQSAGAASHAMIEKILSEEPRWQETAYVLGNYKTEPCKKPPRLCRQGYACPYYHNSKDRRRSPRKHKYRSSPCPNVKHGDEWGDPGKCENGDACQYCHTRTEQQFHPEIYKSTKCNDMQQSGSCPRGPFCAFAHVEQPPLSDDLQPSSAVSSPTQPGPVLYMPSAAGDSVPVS
Oligonucleotide	bound/input enrichment
GAAGGUUUCUUUACCAACGGUUUGACUCUUGGAGCAAAGAAGUGUUCUGUGAUCAGAGAUAGCCUAUACGUUGAUGGUGACUGCACAAUGGACAUCCGGACAAAGAGUCAAGGUGGGGAG	0.405 ratio
UGUUUGAAAUUGGCAGGAAAAAUGCAGCUUUCAAAUCAUUGGGGGGAGAAAAAGGAUGUCUUUCAGGAUUAUUUUAAUUAAUUUUUUUCAUAAUUGAGACAGAACUGUUUGUUAUGUACC	0.79 ratio
GUUCAUUUCUUCAUUCUGUUUGUAUCUAGCGAAGCUGAAUGUCAGAAGCCCCUCUGUCCACACACAAAGUCUGCAUGUAUUGGUCGGUGGUCCUGCCCCUAAAGUCAAGCCCCUACAUCA	0.201 ratio
AGUCAUGUAGAAAAUGAAGCUUUUCCAAAGACCUCUUCAGCAACCCCACAAGAAACUCUUAUUUCUGAUGGUCCCUUCUCAGUAAAUGAACAACAGGAUCUACCACUUUUGGCAGAAGUC	0.146 ratio
CGCAUCAAGAUCCAGCUAUGGGACACAGCAGGACAAGAACGAUUCAGAAAGAGCAUGGUUCAGCACUACUACAGAAAUGUACAUGCUGUUGUCUUCGUGUAUGAUAUGACCAACAUGGCU	0.11 ratio
UUAAGACCCUCGCUCCUGCUGCUAACACAGACCGUUAACCAGAGGAGGCUUCCAUCGUAGCCAUAAUGCCUGUCGUCGUACAGCUCAGUAGCCCGUUCUCUUUCACAGUUCAACGUGUAC	0.299 ratio
ACCAAACUAUACACGUCUGCGCCCAACACAUCUCAGGGUAAAGAUAAUUCUGUCUUACUAGUUCUCAGCAGUGAUGAAAGCCAACAGUCUGAAAACAGUGAGAAUGAAGAGGAUACUUUA	0.16 ratio
UAACGUUACAUAUCAUAGUGAAUGGUUUCCCCAGUGUAUAUGAAUGUUUUAAGUGUUUCCAAUAGCUUAUGAAAUUUAGGAGCUUUCUAAUACUCGUUUUAUAAAUUUAAUCAUUUGCUA	3.34 ratio
GAAGAUAUAGAAGACUUAGAUCACUAUGAGAUGAAGGAAGAAGAGCCUAUUAGUGGGAAAAAGUCAGAGGAUGAAGGAAUUGAAAAAGAAAAUUUGGCAAUAUUAGAGAAAAUUAGGAAG	32 ratio
CCAACAGGCUCUGCCUCCAAGUGCCAAAAACUCCUAGUAAAGUUUGCGCCUCGCCCGCCGUCCACACCCCAGCGGCCCUGACGCUGUCCCCUCCGCGACCCUCGCCUCUGGAAAAAGUGA	0.513 ratio
AUGAUGAAGCUAUCAGAAGAAAAUCGGCACCUGAGAGAUGAAGGUUUAAGGCUCAGAAAGGUAGCACAUUCGGAUAAACCUGGAUCAACCUCAACUGCAUCCUUCAGAGAUAAUGUCACC	0.096 ratio

Set 4
Target: ABI1, truncated, D143A, DHFR fusion (Arabidopsis thaliana)
Technique: DHFR PCA, deep sequencing
Sample: yeast
Notes: methotrexate growth selection, single substitutions
With: (+)-ABA 2500 µM
Reference: wild-type fitted maximum
Reading: higher = stronger binding
Starting sequence: PYL1, truncated, DHFR fusion (Arabidopsis thaliana); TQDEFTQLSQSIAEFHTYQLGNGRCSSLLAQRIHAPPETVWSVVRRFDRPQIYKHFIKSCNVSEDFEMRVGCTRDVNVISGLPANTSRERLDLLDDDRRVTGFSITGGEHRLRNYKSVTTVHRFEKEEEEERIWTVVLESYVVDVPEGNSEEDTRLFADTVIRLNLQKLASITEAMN
Change	relative binding score [%]
L169V	72.1
R111L	86.2
I133Q	103
S27G	98.3
G148H	90.8
R99W	101
S87D	19.7
R111T	62.9
N61V	98.9
N149S	92.4
L20S	102
G148V	79.8
A35I	76.4
D65T	93
D97P	97.8

Set 5
Target: Prothrombin, mature alpha-thrombin (F2, Homo sapiens, UniProt P00734)
Technique: aptamer microarray, sandwich
Form: DNA with 2'F-ANA
Sample: in vitro
Concentration: 200 nM
Notes: whole 15-mer aptamer, many near background
With: Cy3 exosite-II aptamer, 400 nM
Reading: higher = stronger binding
Oligonucleotide: GGTTGGTGTGGTTGG
Modification	mean fluorescence intensity [a.u.]
2'F-ANA at 2 4 5 6 9 10 11 13	46.1
2'F-ANA at 2 3 6 9	698
2'F-ANA at 1 2 3 4 5 6 7 8 10 11 13 15	56.7
2'F-ANA at 3 4 5 6 11 15	74.2
2'F-ANA at 4 5 8 9 12 13 15	78
2'F-ANA at 2 3 5 6 9 12 13	144
2'F-ANA at 3 4 5 6 7 8 10 11 14	47.8
2'F-ANA at 1 2 3 4 5 6 8 9 10 12 13 15	93.3
2'F-ANA at 1 2 3 6 7 8 13 14	78.2
2'F-ANA at 1 3 13 14	74.3
2'F-ANA at 1 3 6 9 10 11 15	66.3
2'F-ANA at 3 4 6 8 11 13 15	434
2'F-ANA at 1 2 3 5 6 8 10 11 13 14 15	54.5
2'F-ANA at 1 2 3 4 5 6 7 8 11 14 15	48.5
2'F-ANA at 2 3 4 9 10 11 12	307
2'F-ANA at 2 3 4 6 9	517
2'F-ANA at 2 3 4 5 7 10 11 13 14 15	55.2
2'F-ANA at 1 4 8 9 12 13 14	74.8
2'F-ANA at 4 5 8 9 12 14	45.1
2'F-ANA at 4 5 6 8 11 13 14	56
2'F-ANA at 2 5 6 7 9 11 15	94.4
2'F-ANA at 2 5 6 7 8 9 11 13	56.6
2'F-ANA at 2 4 5 7 10 11 12 13 14	51.3
2'F-ANA at 2 3 6 7 8 12 15	1010
2'F-ANA at 1 2 5 8 9 10 11 13 14 15	43.8

Single results of other studies
Substance	target	test	test system	setting	scale	measurement	value
PhoQ, residues 284 288 289 292 302 303 AMDMFI	PhoP, residues 12 14 15 18 19 GHCSL (Escherichia coli, UniProt P23836)	Sort-seq, item: YFP reporter	E. coli	PhoQ-PhoP variant library, with: 10 µM Mg2+	reference: high Mg2+ state, higher = stronger signaling	fold induction	0.832

Excerpt of the above (set 2):
Oligonucleotide	log2 enrichment
UCCUGUGCUACACAUCGUAUGUACCGAAUCGGAAAAAAGGAAAAAAGGGAAAAAAGGGGAAAGUAUUAUGUUACGCCGUUCGGAUCUGCA	-0.722
CCUGUGCUACACAUCGUAUGUACCGAAUCGGGGAAAAAGGGGAAAAAAAGGGGUUUGGGGAAAGUAUUAUGUUACGCCGUUCGGAUCUGC	-0.315
CCUGUGCUACACAUCGUAUGUACCGAAUCGGGGAAAAAGGGGUUUUUGGGGUUUUUGGGGAAAGUAUUAUGUUACGCCGUUCGGAUCUGC	-0.448
CCUGUGCUACACAUCGUAUGUACCGAAUCGGGGUUUGGGGUUUUUUUGGGGAAAAAGGGGAAAGUAUUAUGUUACGCCGUUCGGAUCUGC	0.373
CACAGACAACACGCACCCACACAGACACAGAGAAAAGGGGUUGGGAUGGGGACAGGGUGCACAGCAGGGCGGGGUAGGACCCCAGCCCCU	0.823
CCUCAAGUCCUGUGCUACACAUCGUAUGUACCGAAUCGGAAGGAAGGAAGGGAAAGUAUUAUGUUACGCCGUUCGGAUCUGCACUUCCAG	0.275
